Assay results collected from several papers.
Each line is one published result; not all experiments were run side by side. Numbers after ± are the reported error.
Cell line: MCF7

`CC1(C)CC(=O)C2=C(C1)OC(N)=C(C#N)C2c1ccccc1` (stereo not shown) has an IC50 of 334 µM (cell growth or viability, MTT; 24 h).
For `O=C(NNc1nc(-c2ccccc2)cs1)c1cc2c(ccc3ccccc32)oc1=O`, the IC50 was 105 µM (cell growth or viability, SRB; 72 h).
For `CCCCCC(C)n1c(-c2cccnc2)nc(-c2ccc(C)cc2)c1-c1ccc(C)cc1` (stereo not shown), the IC50 was over 100 µM (cell growth or viability, SRB; 48 h).
The IC50 of `C/C(=N\N=c1\sc(/N=N/c2ccc([N+](=O)[O-])cc2[N+](=O)[O-])c(C)n1C)c1c(O)c2ccccc2oc1=O` is reported as 3 µM (cell growth or viability, LDH; 48 h).
`Cc1cc(-c2ccccc2)c2ccc3c(-c4ccccc4)cc(C)[n+]4c3c2[n+]1[Re-2]4(=[C]=O)(=[C]=O)(=[C]=O)[O]C(=O)c1ccccn1` gave an IC50 of 1.65 µM (cell growth or viability, resazurin; 72 h).
With `C[C@@H]1C(=O)CC[C@@H]2[C@]1(C)CC[C@H]1[C@@]2(C)CC[C@@]2(C)[C@@H]3CC(C)(C)CC[C@]3(C)CC[C@]12C` the IC50 was over 100 µM (cell growth or viability, SRB).
`Cc1c(C)n(-c2c(C(C)C)cccc2C(C)C)c(=[Se])n1-c1c(C(C)C)cccc1C(C)C.[Cl][Au]` gave an IC50 of 3.5 µM (cell growth or viability, MTT; 72 h).
`COc1cc(C2COc3cc(O)cc(O)c3C2=NO)c(OC)cc1O` (stereo not shown) gave an IC50 of 110 µM (cell growth or viability, MTT; 72 h).
For `CN1CCC2(CC1)C/C(=N\NC(=O)Nc1ccc([N+](=O)[O-])cc1)c1ccccc1O2`, the IC50 was 10.8 µM (cell growth or viability, MTT; 48 h).
`CCOc1cccc(/C=N/c2ccccc2Nc2ccccc2)c1O` gave an IC50 of 97.6 µM (cell growth or viability, MTT; 48 h).
`COc1ccc2cc3[n+](cc2c1OCc1cn(Cc2ccccc2Cl)nn1)CCc1cc2c(cc1-3)OCO2` gave an IC50 of 79.7 µM (cell growth or viability, MTT).
With `CCCCn1c(-c2cccnc2)nc(-c2ccc(C)cc2)c1-c1ccc(C)cc1` the IC50 was over 100 µM (cell growth or viability, SRB; 48 h).
For `CC(=O)OC[C@H]1O[C@@H](n2nc(-c3cc4ccccc4[nH]3)n(-c3ccc(Cl)cc3)c2=S)[C@H](OC(C)=O)[C@@H](OC(C)=O)[C@@H]1OC(C)=O`, the IC50 was 17.3 µM (cell growth or viability, MTT).
`CSC(=NN=C(C)c1ccc(S(=O)(=O)N2CCC(C)CC2)cc1)N(C)C` gave an IC50 of 3.53 to 5.58 µM (cell growth, MTT).
The IC50 of `C[C@]12CC/C(=N\OCCN3CCOCC3)C=C1CCC1C2CC[C@]2(C)/C(=C/c3ccccn3)CCC12` (stereo partly shown) is reported as over 100 µM (cell growth or viability, MTT; 72 h).
`C=C1C(=O)OC2C1CCC1(C)CC1CCC1(C)OC21` (stereo not shown) has an IC50 of 14.1 µM (cell growth or viability, resazurin).
The IC50 of `[Cl][Pd-2]1([Cl])[N+](=Cc2ccc[nH]2)Cc2cccc[n+]21` is reported as 64.5 µg/mL (cell growth or viability, MTT; 24 h).
For `CC(=O)N1N=C(C)CC1c1ccccc1` (stereo not shown), the IC50 was 6.2 µM (cell growth or viability, LDH; 48 h).
For `FC(F)(F)Sc1ccc(-c2noc(-c3cccs3)c2C(F)(F)F)cc1`, the IC50 was 25.2 µM (cell growth or viability, MTT; 48 h).
`CC(=O)Oc1c(/N=N/c2ccccc2)cc(Br)cc1-c1cnc2ccccc2n1` gave an IC50 of 17.3 µM (cell growth or viability, MTT; 48 h).
For `CCCCCCCCCCCCCCCOC(=O)/C=C/c1ccc(O)c(OC)c1`, the IC50 was 1.9 ± 0.2 µg/mL (cell viability, MTT; 48 h, serum-free medium).
For `CC(=O)N[C@H](CCCNC(=N)N)C(=O)N[C@@H](CC(=O)N[C@H](Cc1ccccc1)C(=O)N[C@H](CC(=O)O)C(N)=O)c1ccc2ccccc2c1`, the IC50 was over 50 µM (cell growth or viability, ATP luminescence; 72 h).
`COc1ccc2cc3[n+](cc2c1OCc1cn(Cc2ccc(S(C)(=O)=O)cc2)nn1)CCc1cc2c(cc1-3)OCO2` has an IC50 of 207 µM (cell growth or viability, MTT).
The IC50 of `C[C@@H]1CC[C@@H]([C@@](O)(COCc2ccccc2)Cn2cnc3ccccc32)[C@H](OCc2ccccc2)C1` is reported as 7.5 µM (cell growth or viability, MTT; 72 h).
For `CCCCCCCCCCCCCCCOC(=O)/C=C/c1ccc(OC)c(OC)c1`, the IC50 was 3.2 ± 0.3 µg/mL (cell viability, MTT; 48 h, serum-free medium).
For `N=C(N)NCCC[C@H](N)C(=O)N1CCC[C@H]1C(=O)N[C@@H](Cc1ccc(O)cc1)C(N)=O`, the IC50 was over 100 µM.
The IC50 of `CCCCCCCCn1c(-c2cccnc2)nc(-c2ccc(C)cc2)c1-c1ccc(C)cc1` is reported as over 100 µM (cell growth or viability, SRB; 48 h).
For `O=C(CN1CCN(c2nsc3ccccc23)CC1)N1CCC(=C2c3ncccc3CCc3cc(Cl)cc(Br)c32)CC1`, the IC50 was 22 µM (cell growth or viability, SRB).
The IC50 of `C/C(=N\N=C1/NC(=O)CS1)c1c(O)c2ccccc2oc1=O` is reported as 26.3 ± 4.1 µM (cell growth, MTT; 48 h).
With `CC(=O)[O][Pt]1([O]C(C)=O)[O]C(=O)C(=O)[O]1.NC1CCCCC1N` the IC50 was 46.6 ± 1.48 µM (cytotoxicity; 72 h).
`CC(=O)OC1CC2C(C)(C)C(O)CCC2(C)C2CCC34CC3(CCC4C(C)CC3OC(C)(C)OC(C)(C)C3O)C12C` (stereo not shown) gave an IC50 of 7.6 µM (cell growth or viability, MTT).
The IC50 of `O=C(NCCCCCCCNc1n[n+]([O-])c2ccccc2[n+]1[O-])C(F)(F)F` is reported as over 103 µM (cytotoxicity, MTT; 24 h, normoxia).
For `COc1c(O)cc2oc3cc4c(c(O)c3c(=O)c2c1CC(O)C(C)(C)O)CC(O)O4` (stereo not shown), the IC50 was over 40 µM (cell growth or viability; 48 h).
With `CCCCCCCCCCCCCCCCOc1c(O)cc(C(=O)O[C@@H]2Cc3c(O)cc(O)cc3O[C@@H]2c2cc(O)c(O)c(O)c2)cc1O` the IC50 was 51.2 µM (cell growth or viability, CCK-8; 24 h).
For `CC1(C)[C@@H](O)CC[C@]2(C)[C@H]3C(=O)C=C4[C@@H]5C[C@@](C)(C(=O)O)CC[C@]5(C)CC[C@@]4(C)[C@]3(C)CC[C@@H]12`, the IC50 was over 40 µM (cell growth or viability, MTT).
`CCC(=C(c1ccc(O)cc1)c1ccc(OCCN(C)CCOCCOCCOCCOCCOCCOCCOCCOCCOCCOCCOCCN(C)CCOc2ccc(C(=C(CC)c3ccccc3)c3ccc(O)cc3)cc2)cc1)c1ccccc1` (mixture of isomers) gave an IC50 of 0.15 µM (cell growth; 96 h, Z-Z:Z-E:E-E isomer mix 1:2:1).
For `CSc1nc(Nc2ccc(/C(C)=N/NC(=O)c3cccc(Cl)c3)cc2)c(C#N)c(-c2ccccc2)n1`, the IC50 was 10.9 µM (cell growth or viability, MTT; 48 h).
`C/C(=N\NC(=S)SCc1ccccc1)c1ccc(S(=O)(=O)N2CCC(C)CC2)cc1` has an IC50 of 122 µM (cell growth or viability, MTT).
With `CN(C)c1ccc(C=NNC(=O)CSc2nc(N)cc(N3C(=O)c4ccccc4C3=O)n2)cc1` the IC50 was 26.5 ± 1.8 µM (cell growth; 24 (unit not given)).
The IC50 of `CC(=O)O[C@H]1CC[C@]2(C)[C@H]3CC=C4[C@@H]5[C@@H](C)[C@H](C)CC[C@]5(C)CC[C@@]4(C)[C@]3(C)CC[C@H]2C1(C)C` is reported as 13.8 µg/mL (cell growth or viability, resazurin; 96 h).
For `C1=CCC=C1.[Cl][Au-]1([Cl])[N+](=P(c2ccccc2)(c2ccccc2)[c-]2cccc2)Cc2cccc[n+]21.[Fe+2].[O-][Cl+3]([O-])([O-])[O-]`, the IC50 was 40 µM (cell growth or viability, MTT; 74 h).
`C=CCc1cc(OC)c(OC(C)=O)c(OC)c1` gave an IC50 of over 50 µM (MTT; 24 h).
`Cc1c(C)c(C)[c-](C)c1C.Fc1c[c-]c(-c2ccccn2)cc1.[Cl-].[Ir+3]` has an IC50 of 4.8 ± 0.3 µM (SRB; 24 h, 72 h recovery).
For `COC(Cn1ccn(C)[c]1=[Ag][O]C(C)=O)c1ccccc1` (stereo not shown), the IC50 was 30.7 µM (cell growth or viability, MTT; 72 h).
The IC50 of `CCC(C(=O)O)C1CCC(C)C(C(C)C(O)C(C)C(=O)C(CC)C2OC3(C=CC(NCc4cn(-c5ccc(C(C)=O)cc5)nn4)C4(CCC(C)(C5CCC(O)(CC)C(C)O5)O4)O3)C(C)CC2C)O1` (stereo not shown) is reported as 0.43 µM (cell growth or viability, resazurin; 72 h).
The IC50 of `COc1cccc(CNC[C@](O)(COCc2ccccc2)[C@@H]2CC[C@@H](C)C[C@H]2OCc2ccccc2)c1` is reported as 0.68 µM (cell growth or viability, MTT; 72 h).
`Cc1cc(C)c(C[n+]2cn(C3CCCC3)c3ccccc32)c(C)c1` has an IC50 of 22 µM (cell growth or viability, MTT; 48 h).
`CCN(CC)c1ccc2c(c1)[O][Pd]([CH2]C#N)[N](Cc1ccccc1)c1ncccc1N=C2` gave an IC50 of 27.7 µM (cell growth or viability, MTT; 48 h).
With `CCC1=C(CC)C2=[N+]3C1=Cc1c(CC)c(CC)c4[n]1[Ir-3]31([c]3n(C(C)C)cc[n+]3C(C)C)([c]3n(C(C)C)cc[n+]3C(C)C)[n]3c(c(CC)c(CC)c3=CC3=[N+]1C(=C4)C(CC)=C3CC)=C2.F[P-](F)(F)(F)(F)F` the IC50 was 0.73 µM (cell growth or viability, MTT; 72 h).
`CSc1nc(Nc2cccc(/C(C)=N/NC(=O)c3cccc(Cl)c3)c2)c(C#N)c(-c2ccccc2)n1` has an IC50 of 10.2 µM (cell growth or viability, MTT; 48 h).
With `CCCCn1cc(C(=O)O)c(=O)c2cc(F)c(Nc3cccc(OC)c3)c(N)c21` the IC50 was 5.4 µg/mL (cell growth or viability, SRB; 72 h).
With `NS(=O)(=O)c1ccc(/N=N/c2ccc(O)c(/C=N/c3ccccn3)c2)cc1` the IC50 was 4.25 µM (cell growth or viability, MTT; 72 h).
The IC50 of `O=C(CCc1nc2cc(Cl)ccc2[nH]c1=O)Nc1ccc([N+](=O)[O-])cc1` is reported as 11.9 µM (cell growth or viability, MTT).
`FC(F)(F)C1(c2ccc(CN3CCN(C(c4ccccc4)c4ccc(Cl)cc4)CC3)cc2)CCC1` (stereo not shown) has an IC50 of 102 µM (cell growth; 72 h).
For `O=C(NCCCCNc1n[n+]([O-])c2ccccc2[n+]1[O-])C(F)(F)F`, the IC50 was over 116 µM (cytotoxicity, MTT; 24 h, normoxia).

Repeated from above:
With `CC(=O)[O][Pt]1([O]C(C)=O)[O]C(=O)C(=O)[O]1.NC1CCCCC1N` the IC50 was 46.6 ± 1.48 µM (cytotoxicity; 72 h).
The IC50 of `O=C(NCCCCCCCNc1n[n+]([O-])c2ccccc2[n+]1[O-])C(F)(F)F` is reported as over 103 µM (cytotoxicity, MTT; 24 h, normoxia).
For `CCCCCC(C)n1c(-c2cccnc2)nc(-c2ccc(C)cc2)c1-c1ccc(C)cc1` (stereo not shown), the IC50 was over 100 µM (cell growth or viability, SRB; 48 h).
The IC50 of `CCCCCCCCn1c(-c2cccnc2)nc(-c2ccc(C)cc2)c1-c1ccc(C)cc1` is reported as over 100 µM (cell growth or viability, SRB; 48 h).
For `CC(=O)OC[C@H]1O[C@@H](n2nc(-c3cc4ccccc4[nH]3)n(-c3ccc(Cl)cc3)c2=S)[C@H](OC(C)=O)[C@@H](OC(C)=O)[C@@H]1OC(C)=O`, the IC50 was 17.3 µM (cell growth or viability, MTT).
